Results gathered from unrelated publications.
± marks the error that the study gave. ≈ marks a conversion by molar mass, not a printed value.

`COc1ccc(-c2nc3ccccc3s2)cc1OCc1nnc(-c2ccc(N)cc2)o1` — result for “minimal effective dose”: 30 mg/kg (hind limb tonic extension; albino mouse, MES-induced seizure; ip, 0.5 h).
The infected macrophages of `O=C(CN1C(=O)Cc2c([nH]c3ccc(Br)cc23)-c2ccc(Cl)cc21)N1CCNCC1` is reported as 15 to 68% (Leishmania braziliensis; intracellular amastigote infection, DAPI fluorescence microscopy; macrophages; 10 µM, 24 h, 5 µM if macrophages detach; lower = more active).
The EC20 of `CCN(CC)CC#CCOC(=O)C(O)(c1ccccc1)C1CCCCC1` (stereo not shown) is reported as > 400000 nM (cytochrome c release, ELISA; BALB/cByJ female mouse liver mitochondria; 30 min; reference: alamethicin maximal release).
For `CC(=O)OC[C@@]1(C)[C@H]2CC[C@@H]3CN(Cc4ccc(Br)cc4)[C@@H](C4=CCOC4=O)C[C@H]3[C@]2(C)CC[C@H]1OC(C)=O`, the inhibition was ~100% (Human coronavirus 229E; viral replication, cytopathic effect; MRC5 cells; 25 µM).
The MIC90 of `Cc1ccccc1NC(=O)Nc1nnc(SCC(O)(Cn2cncn2)c2ccc(F)cc2F)s1` (stereo not shown) is reported as 8 µg/mL (≈ 15.9 µM) (Nannizzia gypsea; broth microdilution; PTCC 5070; 48 h, 37 °C).
For `CN[C@H](CC(C)C)C(=O)N[C@H]1C(=O)N[C@@H](CC(N)=O)C(=O)N[C@H]2C(=O)N[C@H]3C(=O)N[C@H](C(=O)N[C@H](C(=O)O)c4cc(O)cc(O)c4-c4cc3ccc4O)[C@H](O)c3ccc(c(Cl)c3)Oc3cc2cc(c3O[C@@H]2O[C@H](CO)[C@@H](O)[C@H](O)[C@H]2O[C@H]2C[C@](C)(N)[C@H](O)[C@H](C)O2)Oc2ccc(cc2Cl)[C@H]1O`, “serum cytokine level” read 135 pg/mL (Staphylococcus aureus CVCC546; ELISA, measured: IL-6; CD-1 mouse endometritis; 10 µg/mL, 24 h).
For `CC1(C)S[C@@H]2[C@H](NC(=O)[C@H](N)c3ccc(O)cc3)C(=O)N2[C@H]1C(=O)O`, the sensitive strains was 20% (other Enterobacteriaceae; community-acquired pneumonia patients; Fine score below 70).
The inhibition zone of `C[C@@H]1[C@H](O)[C@@H](C)/C=C/C=C/C=C/C=C/C=C/C=C/C=C/[C@H](O[C@@H]2O[C@H](C)[C@@H](O)[C@H](N)[C@@H]2O)C[C@@H]2O[C@](O)(C[C@@H](O)C[C@@H](O)[C@H](O)CC[C@@H](O)C[C@@H](O)CC(=O)O[C@H]1C)C[C@H](O)[C@H]2C(=O)O` is reported as 22 mm (Candida albicans; microbial growth, well diffusion; ATCC10231; 500 µg/mL, 72 h).
For `Cc1ccc(S(=O)(=O)N2C(=O)CSC2c2ccc([N+](=O)[O-])cc2)cc1` (stereo not shown), the MIC was 16 µg/mL (≈ 42.3 µM) (Lacticaseibacillus casei; broth microdilution; NCIM 2651).
`O=C(Nc1ccc(Cl)c(Cl)c1)Nc1nnc(SCC(O)(Cn2cncn2)c2ccc(F)cc2F)s1` (stereo not shown) has an MIC90 of 8 µg/mL (≈ 14.3 µM) (Nannizzia gypsea; broth microdilution; PTCC 5070; 48 h, 37 °C).
`Cc1ccc(C2SCC(=O)N2S(=O)(=O)c2ccc(C)cc2)cc1` (stereo not shown) gave an MIC of > 256 µg/mL (Lacticaseibacillus casei; broth microdilution; NCIM 2651).
The median Cmax of `Cn1c(-c2ccc(C(N)=O)cc2F)nnc1C(C)(C)Oc1c(F)cc(Cl)cc1F` is reported as 0.286 ng/mL (young non-Japanese humans, plasma; oral, 2 mg, day 1, single dose).
`CN(C)Cc1cc(OCCC[18F])ccc1Sc1ccccc1N` gave a tissue uptake of 0.19 ± 0.03 %ID/g (SERT; male Sprague Dawley rat, PCA-treated, hippocampus; intravenous, 60 min).
`c1cnc(NCCCn2ccnc2)cn1` gave an infection inhibition of 58% (Leishmania braziliensis; J774.2 macrophages; IC25, 240 h, day 10; reference: untreated).
The ED50 of `COc1cc2[nH]c(C)c(-c3ccc(Oc4ccc(OC(F)(F)F)cc4)cc3)c(=O)c2cc1Cl` is reported as 0.02 mg/kg/day (Plasmodium yoelii; parasitemia suppression; mouse; oral, 4 days, blood stage, PEG-400 vehicle; 50% suppression vs untreated).
With `COc1cc2[nH]c(C)c(-c3ccc(C(F)(F)F)cc3)c(=O)c2cc1Cl` the parasitaemia suppression was 10 ± 1.2% (Plasmodium berghei (GFP); mice; oral, 50 mg/kg once daily, days 3-5, day 6 post-infection).
For `OB(O)O`, the MBC was 3% (Serratia marcescens; broth macrodilution; clinical isolate; added: zinc borate 9%).
`CC[C@H]1OC(=O)[C@H](C)[C@@H](O[C@H]2C[C@@](C)(OC)[C@@H](O)[C@H](C)O2)[C@H](C)[C@@H](O[C@@H]2O[C@H](C)C[C@H](N(C)C)[C@H]2O)[C@](C)(O)C[C@@H](C)CN(C)[C@H](C)[C@@H](O)[C@]1(C)O` gave a sensitive strains of 100% (other Haemophilus species; community-acquired pneumonia patients; Fine score below 70).
`COc1ccc(-c2nc3ccccc3s2)cc1OCc1nnc(-c2ccccc2)o1`: “minimal effective dose” 30 mg/kg (hind limb tonic extension; albino mouse, MES-induced seizure; ip, 0.5 h).
`CCOC(=O)CN(C(=O)c1ccn2ncc(-c3ccc(C(=O)NC)cc3)c2c1)c1ccc(Cl)cc1` has an EC50 of 66 nM (Cryptosporidium hominis; cytopathic effect; HCT-8; 48 h).
`CC[C@H]1OC(=O)[C@H](C)[C@@H](O[C@H]2C[C@@](C)(OC)[C@@H](O)[C@H](C)O2)[C@H](C)[C@@H](O[C@@H]2O[C@H](C)C[C@H](N(C)C)[C@H]2O)[C@](C)(O)C[C@@H](C)C(=O)[C@H](C)[C@@H](O)[C@]1(C)O` has a sensitive strains of 0% (other Enterobacteriaceae; community-acquired pneumonia patients; Fine score below 70).
`CC(C)[C@H](NC(=O)[C@@H]1CCCN1C(=O)[C@H](CCCNC(=N)N)NC(=O)[C@H](CS)NC(=O)[C@H](Cc1c[nH]c2ccccc12)NC(=O)[C@H](CCCNC(=N)N)NC(=O)[C@@H](Cc1ccccc1)NC(=O)[C@H](Cc1c[nH]cn1)NC(=O)[C@H](CCC(=O)O)NC(=O)[C@H](CS)NC(=O)[C@H](CS)NC(=O)[C@H](CCCCN)NC(=O)[C@@H]1CC(=O)N[C@@H](CCCNC(=N)N)C(=O)N[C@@H](C)C(=O)N[C@@H](CC(=O)O)C(=O)N[C@H](Cc2ccc(O)cc2)C(=O)N1)C(N)=O` [technetium-99m labelled] has a tissue uptake of 0.19 ± 0.05 %ID/g (C57 mice, pancreas; intravenous, 0.037 MBq, 2 h).
